Assay results of several laboratories.
Compare with care: the assays were run in different laboratories. ± gives the spread as reported.

SMILES = CNC(=O)c1cc(Oc2ccc(NC(=O)Nc3ccc(Cl)c(C(F)(F)F)c3)cc2)ccn1; test = LC-MS/MS; test system = nude mouse subcutaneous tumour model, tumour tissue; setting = intratumoral, 2 mg/kg, PDC 4 control; quantity = t1/2; value = 23.3 ± 6.68 h
SMILES = O=C(O)c1cn(C2CC2)c2cc(N3CCNCC3)c(F)cc2c1=O; test = mitochondrial swelling; test system = BALB/cByJ female mouse liver mitochondria; setting = 30 min, together with: succinate + rotenone; how to read = relative to: CaCl2 maximal swelling; quantity = EC20; value = > 400 µM
SMILES = CC(C)(c1ccc(O)cc1)c1ccc(O)cc1; test = GC-MS; test system = exposure tank water with snails, charcoal-filtered tap water; setting = 250 ng/L nominal, 22 °C; quantity = half-life; value = 3.76 h
SMILES = Cc1ccc(NC(=O)c2ccc(CN3CCN(C)CC3)cc2)cc1Nc1nccc(-c2cncc(-c3oncc3C)c2)n1; test system = healthy volunteers, plasma; setting = oral, 25.0 mg once daily, day 1, 7-day dosing, mean; quantity = AUC(0-tau); value = 12.7 µg·h/mL
SMILES = CCCC[C@@H]1NC(=O)[C@@H](NC(=O)[C@H](CCC(=O)O)NC(=O)CNC(=O)CN2CCN(CC(=O)O)CCN(CC(=O)O)CCN(CC(=O)O)CC2)CCCCNC(=O)C[C@@H](C(N)=O)NC(=O)[C@H](C(C)C)NC(=O)[C@@H]2CCCN2C(=O)[C@H](CCCNC(=N)N)NC(=O)CNC(=O)[C@H](Cc2c[nH]c3ccccc23)NC(=O)[C@H](CCCNC(=N)N)NC(=O)[C@@H](Cc2ccccc2)NC(=O)[C@H](Cc2c[nH]cn2)NC(=O)[C@H](CCC(=O)O)NC1=O [indium-111 labelled]; test system = normal C57 mice, bone; setting = intravenous, 0.037 MBq, 24 h; quantity = tissue uptake; value = 0.03 ± 0.01 %ID/g
SMILES = CC(C)[C@H](NC(=O)[C@@H]1CCCN1C(=O)[C@H](CCCNC(=N)N)NC(=O)[C@H](CS)NC(=O)[C@H](Cc1c[nH]c2ccccc12)NC(=O)[C@H](CCCNC(=N)N)NC(=O)[C@@H](Cc1ccccc1)NC(=O)[C@H](Cc1c[nH]cn1)NC(=O)[C@H](CCC(=O)O)NC(=O)[C@H](CS)NC(=O)[C@H](CS)NC(=O)[C@H](CCCCN)NC(=O)[C@@H]1CC(=O)N[C@@H](CCCNC(=N)N)C(=O)N[C@@H](C(C)C)C(=O)N[C@@H](CC(=O)O)C(=O)N[C@H](Cc2ccc(O)cc2)C(=O)N1)C(N)=O [technetium-99m labelled]; test = radio-HPLC; test system = mouse serum; setting = 24 h, 37 °C; quantity = serum stability; value = stable
SMILES = CC(C)(CO)c1cc2cc(NC(=O)C3(c4ccc5c(c4)OC(F)(F)O5)CC3)c(F)cc2n1C[C@@H](O)CO; test system = healthy subjects, plasma; setting = oral, 25 mg tezacaftor once daily, together with: ivacaftor 50 mg, itraconazole 200 mg; how to read = relative to: with over without itraconazole; quantity = AUC ratio; value = 4.02
SMILES = CC(=O)N[C@@H](Cc1ccccc1)C(=O)N[C@H]1CCCNC(=O)[C@H](CCCNC(=N)N)NC(=O)[C@H](Cc2c[nH]c3ccccc23)NC(=O)[C@@H](CC2CCCCC2)NC(=O)[C@@H]2CCCN2C1=O; test system = C57BL/6J mice, brain; setting = intraperitoneal, 1 mg/kg; quantity = elimination half-life; value = 0.957 h
SMILES = C[C@H]1C[C@@H]2[C@H]([C@@H](O)C[C@@]3(C)[C@H]2CC[C@]3(O)C(=O)CO)[C@@]2(C)C=CC(=O)C=C12; test system = human, plasma; setting = oral, 32 mg daily, days 1 and 4; how to read = relative to: free over total; quantity = free to total exposure ratio; value = ~8%
SMILES = Cc1ccc2c(c1)nc(/C=C/c1cccc3cccnc13)n2-c1cccc(OCCCN2CCN(C)CC2)c1; test system = Sprague-Dawley rat, male, plasma; setting = oral, 2.5 mg/kg, 10 h; quantity = plasma concentration; value = ~0.084 µM
SMILES = Cc1c2oc3c(C)ccc(C(=O)N[C@@H]4C(=O)N[C@H](C(C)C)C(=O)N5CCC[C@H]5C(=O)N(C)CC(=O)N(C)[C@@H](C(C)C)C(=O)O[C@@H]4C)c3nc-2c(C(=O)N[C@@H]2C(=O)N[C@H](C(C)C)C(=O)N3CCC[C@H]3C(=O)N(C)CC(=O)N(C)[C@@H](C(C)C)C(=O)O[C@@H]2C)c(N)c1=O; test system = mouse, FVB wild type, plasma; setting = intravenous, 0.5 mg/kg; quantity = AUC(0-6h); value = 0.152 µg·h/mL
SMILES = O=C1c2c(O)ccc(O)c2C(=O)c2c(NCCNCCO)ccc(NCCNCCO)c21; test = cytochrome c release, ELISA; test system = BALB/cByJ female mouse liver mitochondria; setting = 30 min; how to read = relative to: alamethicin maximal release; quantity = EC20; value = > 400 µM
SMILES = CC1=C(/C=C/C(C)=C/C=C/C(C)=C/C(=O)Nc2ccc(O)cc2)C(C)(C)CCC1; test = substrate, refers to: 4'-hydroxy metabolite formation; test system = human liver microsomes; setting = 3 h, pH 7.4; quantity = Km; value = 17.8 ± 9.4 µM
SMILES = NC(=O)N1c2ccccc2C=Cc2ccccc21; test = cytochrome c release, ELISA; test system = BALB/cByJ female mouse liver mitochondria; setting = 30 min; how to read = relative to: alamethicin maximal release; quantity = EC20; value = > 400 µM
SMILES = CO[C@H]1O[C@H](COS(=O)(=O)O)[C@@H](O[C@@H]2O[C@@H](C(=O)O)[C@@H](O[C@H]3O[C@H](COS(=O)(=O)O)[C@@H](O[C@@H]4O[C@H](C(=O)O)[C@@H](O[C@H]5O[C@H](COS(=O)(=O)O)[C@@H](O)[C@H](O)[C@H]5NS(=O)(=O)O)[C@H](O)[C@H]4O)[C@H](OS(=O)(=O)O)[C@H]3NS(=O)(=O)O)[C@H](O)[C@H]2OS(=O)(=O)O)[C@H](O)[C@H]1NS(=O)(=O)O; test system = male Wistar rat, plasma; setting = subcutaneous, 200 µg/kg; quantity = bioavailability; value = 115%
